Published values gathered from unrelated publications.
Numbers after ± are the reported error.

CC(C)[C@H](NC(=O)[C@H](Cc1c[nH]c2ccccc12)NC(=O)[C@H](CCCCN)NC(=O)CNC(=O)[C@@H](NC(=O)[C@H](C)NC(=O)[C@@H]1CCCN1C(=O)[C@H](CC(N)=O)NC(=O)[C@H](Cc1c[nH]c2ccccc12)NC(=O)[C@H](Cc1c[nH]cn1)NC(=O)[C@H](Cc1c[nH]c2ccccc12)NC(=O)[C@@H](N)CCCNC(=N)N)[C@@H](C)O)C(=O)N[C@@H](Cc1c[nH]c2ccccc12)C(=O)N[C@@H](CCC(=O)O)C(=O)O — Tm (circular dichroism; phosphate buffer; pH 6.5): 80.7 ± 0.1 °C
[123I]c1cncc(OC[C@@H]2CCN2)c1 — tissue/plasma ratio (SPECT; human, frontal lobe; intravenous bolus plus infusion, 7.8 mCi; reference: tissue over plasma): 16.2
Oc1cc(Cl)c(-c2cc(Cl)ccc2Cl)cc1Cl — serum concentration (Sprague-Dawley rat, male, serum; subcutaneous implant, 10% in implant, 28 d, high dose group): 164 ± 27 ng/g
O=c1[nH]c(Cc2ccccn2)nc2c1cnn2C1CCOCC1 — Cmax (male human, plasma; oral, 50 mg, single dose): 613 nM
CN[C@@](C)(C[18F])C(=O)O — tracer uptake (mouse, bone; 30 min, tumour-bearing): 4.3 %ID/g
COc1ccc(C[C@@H]2NC(=O)[C@H]([C@@H](C)O)NC(=O)[C@@H]3[C@@H]4CCN3C(=O)[C@@H]3Cc5cn(c6ccc(F)cc56)CCCCCCN(Cc5ccc(cc5)CCNC(=O)[C@]5(C)CCCN5C2=O)C(=O)CCC(=O)N[C@@H](C)C(=O)N[C@H](CNC(=O)CCCCC[N+](C)(C)C)C(=O)N[C@@H](Cc2cccc(c2)CNC(=O)CO4)C(=O)N3)cc1 — Vz/F (fasted healthy humans, plasma; oral, 200 mg single dose, with 1800 mg Labrasol, geometric mean): 14200 L
CC(C)C[C@@H](NC(=O)[C@@H](Cc1ccccc1)NC(=O)[C@H](N)Cc1ccccc1)C(=O)N[C@H](CCCCN)C(=O)N1CCC(N)(C(=O)O)CC1 — dose recovered in feces (item: total radioactivity; healthy human subjects; intravenous, time not given): 11.3%
CCc1cccc(CC)c1N(COC)C(=O)CCl — remaining amount (LC-MS/MS; herbicide solution; 2 h, 23 °C, added: 254 nm UV exposure): 1.51 ± 0.1%
CC[C@H](C)[C@H](NC(=O)[C@@H](N)CCCNC(=N)N)C(=O)N[C@H](C(=O)N1CCC[C@H]1C(=O)N[C@@H](C)C(N)=O)C(C)C — Cmax (human, plasma; intravenous, 2 mg/kg, single dose, healthy volunteers): 5870 ng/mL
CC[C@H](C)[C@H](NC(=O)[C@H](CO)NC(=O)[C@H](C)NC(=O)[C@@H](NC(=O)CNC(=O)[C@H](CO)NC(=O)[C@@H](NC(=O)[C@@H](NC(=O)[C@H](Cc1c[nH]cn1)NC(=O)[C@@H]1CCCN1C(=O)[C@@H](NC(=O)[C@H](CC(C)C)NC(=O)[C@H](CO)NC(=O)[C@H](CC(C)C)NC(=O)[C@@H](N)Cc1ccccc1)[C@@H](C)CC)[C@@H](C)CC)C(C)C)C(C)C)C(=O)N[C@@H](C)C(=O)N[C@@H](CCCCN)C(=O)N[C@@H](Cc1c[nH]cn1)C(=O)N[C@@H](Cc1ccccc1)C(N)=O — concentration found (UPLC-MS/MS; rat plasma; 0.2 µg/mL, 4 h, room temperature, short-term stability): 189 ng/mL
CCCCCOc1ccc(-c2cc(-c3ccc(C(=O)N[C@H]4C[C@@H](O)[C@@H](O)NC(=O)[C@@H]5[C@@H](O)[C@@H](C)CN5C(=O)[C@H]([C@H](O)CC(N)=O)NC(=O)[C@H]([C@H](O)[C@@H](O)c5ccc(O)c(OS(=O)(=O)O)c5)NC(=O)[C@@H]5C[C@@H](O)CN5C(=O)[C@H]([C@@H](C)O)NC4=O)cc3)no2)cc1 — Tmax (human paediatric patients 2 to 5 years, plasma; intravenous, 4.5 mg/kg once daily, day 7, median): 1.1 h
Cn1cnc2c(F)c(Nc3ccc(Br)cc3Cl)c(C(=O)NOCCO)cc21 — AUC(0-10h) (human patients; oral, 100 mg once daily, combination therapy, MTD cohort): 2300 to 7880 ng·h/mL

Some of these lines once more:
CC[C@H](C)[C@H](NC(=O)[C@@H](N)CCCNC(=N)N)C(=O)N[C@H](C(=O)N1CCC[C@H]1C(=O)N[C@@H](C)C(N)=O)C(C)C — Cmax (human, plasma; intravenous, 2 mg/kg, single dose, healthy volunteers): 5870 ng/mL
CC(C)C[C@@H](NC(=O)[C@@H](Cc1ccccc1)NC(=O)[C@H](N)Cc1ccccc1)C(=O)N[C@H](CCCCN)C(=O)N1CCC(N)(C(=O)O)CC1 — dose recovered in feces (item: total radioactivity; healthy human subjects; intravenous, time not given): 11.3%
